Experimental data of several laboratories.
Numbers after ± are the reported error.
UniProt Q9GZQ6, sequence (whole entry, looked up): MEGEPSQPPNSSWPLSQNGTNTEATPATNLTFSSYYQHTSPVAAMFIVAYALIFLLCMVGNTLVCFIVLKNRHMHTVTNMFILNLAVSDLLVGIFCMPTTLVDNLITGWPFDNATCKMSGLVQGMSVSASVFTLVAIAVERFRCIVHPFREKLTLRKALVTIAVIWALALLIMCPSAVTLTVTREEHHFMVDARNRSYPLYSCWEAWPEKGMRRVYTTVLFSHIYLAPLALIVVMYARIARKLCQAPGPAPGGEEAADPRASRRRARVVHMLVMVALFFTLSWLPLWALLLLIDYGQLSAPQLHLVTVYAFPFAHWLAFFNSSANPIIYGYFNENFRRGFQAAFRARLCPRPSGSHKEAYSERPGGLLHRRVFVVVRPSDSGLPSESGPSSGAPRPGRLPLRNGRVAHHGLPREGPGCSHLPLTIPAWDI
UniProt Q13561, sequence (whole entry, looked up): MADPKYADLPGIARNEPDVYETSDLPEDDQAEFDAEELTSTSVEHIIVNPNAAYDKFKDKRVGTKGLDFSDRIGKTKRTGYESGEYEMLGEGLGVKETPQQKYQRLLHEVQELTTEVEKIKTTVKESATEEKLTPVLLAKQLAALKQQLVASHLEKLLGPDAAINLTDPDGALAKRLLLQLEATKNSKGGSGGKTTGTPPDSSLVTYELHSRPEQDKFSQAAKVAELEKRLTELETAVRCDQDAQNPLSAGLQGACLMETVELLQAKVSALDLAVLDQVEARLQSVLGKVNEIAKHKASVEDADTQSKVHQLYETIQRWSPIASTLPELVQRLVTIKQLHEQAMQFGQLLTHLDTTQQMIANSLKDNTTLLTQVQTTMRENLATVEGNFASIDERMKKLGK
UniProt P60893, sequence (whole entry, looked up): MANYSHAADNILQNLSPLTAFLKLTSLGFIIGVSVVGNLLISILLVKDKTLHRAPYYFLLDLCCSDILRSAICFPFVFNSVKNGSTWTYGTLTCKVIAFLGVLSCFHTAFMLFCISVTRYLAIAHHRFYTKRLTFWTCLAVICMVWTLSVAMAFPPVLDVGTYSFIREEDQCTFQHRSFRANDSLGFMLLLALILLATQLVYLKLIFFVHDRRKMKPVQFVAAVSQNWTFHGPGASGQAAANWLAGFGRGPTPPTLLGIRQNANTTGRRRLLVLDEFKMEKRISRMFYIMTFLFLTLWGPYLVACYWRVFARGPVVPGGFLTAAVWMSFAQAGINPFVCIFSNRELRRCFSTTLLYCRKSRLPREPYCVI
UniProt Q14012, sequence (whole entry, looked up): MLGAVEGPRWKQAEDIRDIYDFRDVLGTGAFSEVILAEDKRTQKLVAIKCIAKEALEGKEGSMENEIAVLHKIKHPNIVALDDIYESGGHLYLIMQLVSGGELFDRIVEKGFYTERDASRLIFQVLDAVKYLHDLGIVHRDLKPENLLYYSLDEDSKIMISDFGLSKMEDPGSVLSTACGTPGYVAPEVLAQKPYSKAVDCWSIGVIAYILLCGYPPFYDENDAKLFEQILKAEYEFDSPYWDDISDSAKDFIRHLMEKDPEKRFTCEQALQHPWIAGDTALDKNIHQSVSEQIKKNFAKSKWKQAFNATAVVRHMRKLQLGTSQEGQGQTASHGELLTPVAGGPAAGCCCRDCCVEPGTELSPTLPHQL
UniProt Q15102, sequence (whole entry, looked up): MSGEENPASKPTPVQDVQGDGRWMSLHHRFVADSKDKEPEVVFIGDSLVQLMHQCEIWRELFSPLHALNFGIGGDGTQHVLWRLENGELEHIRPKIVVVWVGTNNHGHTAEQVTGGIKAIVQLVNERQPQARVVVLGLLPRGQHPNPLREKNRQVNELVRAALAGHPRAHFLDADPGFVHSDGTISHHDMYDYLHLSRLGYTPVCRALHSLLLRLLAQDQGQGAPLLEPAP
UniProt Q9H2G2, sequence (whole entry, looked up): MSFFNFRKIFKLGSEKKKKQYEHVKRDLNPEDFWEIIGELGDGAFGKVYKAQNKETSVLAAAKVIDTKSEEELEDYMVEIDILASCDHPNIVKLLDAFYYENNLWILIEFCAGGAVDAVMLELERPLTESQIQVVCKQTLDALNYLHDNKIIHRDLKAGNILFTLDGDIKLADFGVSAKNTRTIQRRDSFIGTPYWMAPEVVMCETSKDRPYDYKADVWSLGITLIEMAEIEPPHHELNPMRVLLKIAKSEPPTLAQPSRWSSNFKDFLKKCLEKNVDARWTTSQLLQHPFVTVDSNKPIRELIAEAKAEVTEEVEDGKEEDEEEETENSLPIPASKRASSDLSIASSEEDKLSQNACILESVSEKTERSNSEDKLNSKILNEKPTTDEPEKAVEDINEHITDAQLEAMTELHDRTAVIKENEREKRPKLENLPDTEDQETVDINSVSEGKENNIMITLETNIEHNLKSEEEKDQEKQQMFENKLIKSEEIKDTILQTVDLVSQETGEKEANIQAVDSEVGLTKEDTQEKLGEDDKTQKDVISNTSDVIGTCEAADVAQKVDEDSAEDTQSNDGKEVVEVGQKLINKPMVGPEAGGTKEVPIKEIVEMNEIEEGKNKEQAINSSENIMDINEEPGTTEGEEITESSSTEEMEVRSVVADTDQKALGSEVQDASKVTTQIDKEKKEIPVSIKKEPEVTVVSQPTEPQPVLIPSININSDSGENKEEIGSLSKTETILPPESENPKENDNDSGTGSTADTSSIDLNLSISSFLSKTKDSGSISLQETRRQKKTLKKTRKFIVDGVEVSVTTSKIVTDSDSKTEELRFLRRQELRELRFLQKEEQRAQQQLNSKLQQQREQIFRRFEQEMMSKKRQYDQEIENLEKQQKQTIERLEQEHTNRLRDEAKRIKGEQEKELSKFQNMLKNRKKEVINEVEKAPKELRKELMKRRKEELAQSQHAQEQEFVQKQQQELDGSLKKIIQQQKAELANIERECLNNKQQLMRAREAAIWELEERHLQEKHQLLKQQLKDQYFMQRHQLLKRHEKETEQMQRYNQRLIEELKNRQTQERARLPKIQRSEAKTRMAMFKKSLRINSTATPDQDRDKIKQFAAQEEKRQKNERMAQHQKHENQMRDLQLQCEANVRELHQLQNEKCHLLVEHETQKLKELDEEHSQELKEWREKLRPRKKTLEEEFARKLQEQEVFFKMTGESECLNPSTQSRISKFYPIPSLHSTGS
UniProt Q8NET8, sequence (whole entry, unmodified, looked up): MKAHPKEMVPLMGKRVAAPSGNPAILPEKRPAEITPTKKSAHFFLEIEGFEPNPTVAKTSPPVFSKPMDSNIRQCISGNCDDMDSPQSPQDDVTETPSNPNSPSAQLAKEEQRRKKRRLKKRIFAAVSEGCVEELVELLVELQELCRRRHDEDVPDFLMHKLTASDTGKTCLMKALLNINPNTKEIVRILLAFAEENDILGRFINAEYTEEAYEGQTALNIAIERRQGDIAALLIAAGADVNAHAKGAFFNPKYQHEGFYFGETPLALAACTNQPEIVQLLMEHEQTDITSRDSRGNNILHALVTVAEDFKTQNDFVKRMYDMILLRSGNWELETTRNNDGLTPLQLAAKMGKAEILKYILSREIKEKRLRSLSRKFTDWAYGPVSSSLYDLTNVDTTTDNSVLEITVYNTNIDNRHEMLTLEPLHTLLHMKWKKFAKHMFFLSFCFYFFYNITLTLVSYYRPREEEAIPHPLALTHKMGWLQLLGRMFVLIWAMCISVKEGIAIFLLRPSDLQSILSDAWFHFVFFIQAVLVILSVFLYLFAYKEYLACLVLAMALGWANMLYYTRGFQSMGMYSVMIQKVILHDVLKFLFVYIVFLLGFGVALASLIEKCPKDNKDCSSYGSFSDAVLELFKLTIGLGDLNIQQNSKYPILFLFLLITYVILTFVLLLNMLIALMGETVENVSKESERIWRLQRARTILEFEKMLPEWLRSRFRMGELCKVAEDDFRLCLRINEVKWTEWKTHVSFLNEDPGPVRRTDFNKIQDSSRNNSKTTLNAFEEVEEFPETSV
UniProt Q9HB89, sequence (whole entry, looked up): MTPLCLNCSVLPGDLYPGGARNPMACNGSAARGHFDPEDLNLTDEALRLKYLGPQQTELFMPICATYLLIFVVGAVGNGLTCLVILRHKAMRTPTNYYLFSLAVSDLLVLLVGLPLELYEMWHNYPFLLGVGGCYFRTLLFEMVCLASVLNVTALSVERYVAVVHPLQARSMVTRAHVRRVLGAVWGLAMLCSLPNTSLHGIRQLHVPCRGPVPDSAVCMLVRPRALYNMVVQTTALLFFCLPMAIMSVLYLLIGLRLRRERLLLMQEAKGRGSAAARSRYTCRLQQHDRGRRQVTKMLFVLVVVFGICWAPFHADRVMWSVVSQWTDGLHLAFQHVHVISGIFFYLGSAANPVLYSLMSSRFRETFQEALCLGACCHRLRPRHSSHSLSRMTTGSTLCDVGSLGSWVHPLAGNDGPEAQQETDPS

Compound	tested on	assay	system	conditions	scale	measurement	value
C[C@H]1CN(c2n[nH]c3nc(N[C@H]4CC[C@H](NS(=O)(=O)CCC(F)(F)F)CC4)ncc23)CCO1	Dynactin subunit 2 (DCTN2, Homo sapiens, UniProt Q13561)	Kinobeads competition, item: DCTN2		20 µM, unit not given	relative to: vehicle	remaining binding	1.24
CN1CCN(c2cc(-c3ccncc3)c(-c3ccc4ccccc4c3)nn2)CC1	NMUR1 (Homo sapiens, UniProt Q9HB89)	antagonist, FLIPR		10 µM		inhibition	0.5%
CCCc1cc(O)c2c(c1)OC(C)(C)[C@@H]1CCC(C)=C[C@@H]21	TRPV3 (Homo sapiens, UniProt Q8NET8, L420A)	calcium uptake, agonist	HEK293S	mutant L420A, site 3		Hill coefficient	1.84 ± 0.17
[2H]c1c([2H])c([C@]2([2H])CCCN2C(=O)C(C)(C)Oc2ccc3cn[nH]c3c2)c([2H])c([2H])c1C([2H])([2H])[2H]	SLK (Homo sapiens, UniProt Q9H2G2)	KINOMEscan		1 µM	relative to: DMSO control	remaining binding	82%
CC[C@H](C)[C@H](NC(=O)CNC(=O)[C@@H](N)CCCCN)C(=O)N[C@@H](CC(C)C)C(=O)N[C@@H](CCCCN)C(=O)N[C@@H](CCCNC(=N)N)C(=O)N[C@@H](CCC(=O)O)C(=O)N[C@@H](CCCCN)C(=O)N[C@@H](CCCNC(=N)N)C(=O)N[C@@H](CC(C)C)C(=O)N[C@@H](CCCNC(=N)N)C(=O)N[C@@H](CCCNC(=N)N)C(=O)N[C@@H](CCCCN)C(=O)N[C@@H](CC(N)=O)C(=O)N[C@H](C(=O)N[C@@H](Cc1c[nH]cn1)C(=O)N[C@@H](Cc1c[nH]c2ccccc12)C(=O)N1CCC[C@H]1C(=O)N[C@@H](CCC(=O)O)C(=O)N[C@@H](CCC(=O)O)C(=O)NCC(=O)N[C@@H](CCCCN)C(=O)N[C@@H](CC(C)C)C(=O)N[C@@H](CCCNC(=N)N)C(=O)N[C@@H](CCC(=O)O)C(=O)N[C@@H](Cc1ccc(O)cc1)C(=O)N[C@@H](Cc1ccccc1)C(=O)N[C@@H](Cc1ccc(O)cc1)C(=O)N[C@@H](Cc1ccccc1)C(=O)N[C@@H](CCC(=O)O)C(=O)N[C@@H](CC(C)C)C(=O)N[C@@H](CC(=O)O)C(=O)N[C@@H](CCC(=O)O)C(=O)N[C@@H](C)C(=O)N[C@@H](CCC(=O)O)C(=O)N[C@@H](CCCNC(=N)N)C(=O)N[C@H](C(=O)N[C@@H](CC(N)=O)C(=O)N[C@H](C(=O)O)C(C)C)C(C)C)C(C)C	HeLa and HEK-293T cells	phosphatase bead binding, competitive inhibitor, PIB pulldown LC-MS/MS, item: KNL1		concentration not given	relative to: untreated control	log2 fold change	-5.26
Oc1ccc2c3c1O[C@H]1[C@@H](O)CC[C@@]4(O)[C@@H](C2)N(CC2CCC2)CC[C@]314	NPFFR1 (Homo sapiens, UniProt Q9GZQ6)	β-arrestin recruitment, TANGO luminescence, item: NPFF1		concentration not given	relative to: basal luminescence	log2 fold change	0.164
COc1ccc(N2C(=O)N(c3c(C)cccc3Cl)Cc3cnc(Nc4ccc(C5CCN(C)CC5)cc4OC)nc32)nc1	CAMK1 (Homo sapiens, UniProt Q14012)	kinase activity, inhibitor		0.5 µM, kinase CAMK1A		inhibition	4.26%
COc1cc(N)c(Cl)cc1C(=O)NC1CN2CCC1CC2 (stereo not drawn)	Probable G-protein coupled receptor 85 (GPR85, Homo sapiens, UniProt P60893)	β-arrestin recruitment, TANGO luminescence, item: GPR85		concentration not given	relative to: basal luminescence	log2 fold change	-0.427
O=C(c1ccc(Cl)cc1)N1CCN2C(=O)N(OC(=O)N3CCOc4ccccc43)C(=O)C2C1 (stereo not drawn)	Platelet-activating factor acetylhydrolase IB subunit alpha1 (Homo sapiens, UniProt Q15102)	enzyme activity, inhibitor, MS-based ABPP	SW-620 conditioned medium	10 µM, 1 h, 37 °C	relative to: compound over DMSO, lower = stronger inhibition	median ratio	1.09

For quick reference, copied from above:
Compound	tested on	assay	system	conditions	scale	measurement	value
CC[C@H](C)[C@H](NC(=O)CNC(=O)[C@@H](N)CCCCN)C(=O)N[C@@H](CC(C)C)C(=O)N[C@@H](CCCCN)C(=O)N[C@@H](CCCNC(=N)N)C(=O)N[C@@H](CCC(=O)O)C(=O)N[C@@H](CCCCN)C(=O)N[C@@H](CCCNC(=N)N)C(=O)N[C@@H](CC(C)C)C(=O)N[C@@H](CCCNC(=N)N)C(=O)N[C@@H](CCCNC(=N)N)C(=O)N[C@@H](CCCCN)C(=O)N[C@@H](CC(N)=O)C(=O)N[C@H](C(=O)N[C@@H](Cc1c[nH]cn1)C(=O)N[C@@H](Cc1c[nH]c2ccccc12)C(=O)N1CCC[C@H]1C(=O)N[C@@H](CCC(=O)O)C(=O)N[C@@H](CCC(=O)O)C(=O)NCC(=O)N[C@@H](CCCCN)C(=O)N[C@@H](CC(C)C)C(=O)N[C@@H](CCCNC(=N)N)C(=O)N[C@@H](CCC(=O)O)C(=O)N[C@@H](Cc1ccc(O)cc1)C(=O)N[C@@H](Cc1ccccc1)C(=O)N[C@@H](Cc1ccc(O)cc1)C(=O)N[C@@H](Cc1ccccc1)C(=O)N[C@@H](CCC(=O)O)C(=O)N[C@@H](CC(C)C)C(=O)N[C@@H](CC(=O)O)C(=O)N[C@@H](CCC(=O)O)C(=O)N[C@@H](C)C(=O)N[C@@H](CCC(=O)O)C(=O)N[C@@H](CCCNC(=N)N)C(=O)N[C@H](C(=O)N[C@@H](CC(N)=O)C(=O)N[C@H](C(=O)O)C(C)C)C(C)C)C(C)C	HeLa and HEK-293T cells	phosphatase bead binding, competitive inhibitor, PIB pulldown LC-MS/MS, item: KNL1		concentration not given	relative to: untreated control	log2 fold change	-5.26
